Measurements collected from several papers.

| SMILES | assay | system | conditions | scale | quantity | result |
| --- | --- | --- | --- | --- | --- | --- |
| CC[C@H](C)[C@H](NC(=O)[C@H](Cc1c[nH]c2ccccc12)NC(=O)[C@H](CCCNC(=O)c1ccc2c(c1)C1(OC2=O)c2ccc(O)cc2Oc2cc(O)ccc21)NC(=O)CNC(=O)[C@H]1CCCN1C(=O)[C@@H](NC(=O)[C@H](CCCNC(=N)N)NC(=O)[C@@H](NC(=O)[C@H](Cc1c[nH]c2ccccc12)NC(=O)[C@H](CCCN)NC(C)=O)C(C)C)C(C)C)C(=O)N[C@@H](CCCNC(=N)N)C(=O)N[C@@H](CCC(N)=O)C(N)=O | – | OPM-2 cell lysate | – | relative to: compound over unstructured degron peptide | stability ratio | 20 fold |
| CC[C@H](C)[C@@H]1NC(=O)[C@H]([C@@H](C)O)NC(=O)[C@H](CO)NC(=O)[C@H](CCSC)NC(=O)[C@H](CCCNC(=N)N)NC(=O)[C@@H]2CCCN2C(=O)[C@H](CC(=O)O)NC(=O)CNC(=O)[C@@H]2CSSC[C@@H]3NC(=O)[C@H]([C@@H](C)O)NC(=O)[C@H](CCCCN)NC(=O)[C@@H]4CCCN4C(=O)[C@H](CSSC[C@H](NC(=O)[C@H](C(C)C)NC(=O)[C@H](CC(N)=O)NC(=O)[C@H](CCC(N)=O)NC(=O)[C@@H]4CCCN4C(=O)[C@H]([C@@H](C)CC)NC(=O)[C@H](CCCNC(=N)N)NC(=O)[C@H](CC(=O)O)NC(=O)[C@H](CCCNC(=N)N)NC(=O)[C@@H](N)CSSC[C@@H](C(N)=O)NC(=O)[C@H](CCCCN)NC(=O)CNC3=O)C(=O)N[C@@H](CCC(=O)O)C(=O)N[C@@H](CCC(N)=O)C(=O)N[C@@H](CCSC)C(=O)N[C@@H](CCCCN)C(=O)N[C@@H](CCCCN)C(=O)N[C@@H](CC(N)=O)C(=O)NCC(=O)N[C@@H](CCCCN)C(=O)N2)NC(=O)[C@H](CCC(N)=O)NC(=O)[C@H](CC(C)C)NC(=O)[C@H](CCC(=O)O)NC(=O)[C@H](C)NC1=O | – | 100% human serum | 40 µM, up to 24 h, 37 °C | – | stability | stable |
| C1=CCCC=CCC1.C1=CCCC=CCC1.[Cl][Hg-]([Cl])[Cl].[Cl][Hg-]([Cl])[Cl].[Pt+][c]1ccccc1P(=Nc1ccccc1)(c1ccccc1)c1ccccc1.[Pt+][c]1ccccc1P(=Nc1ccccc1)(c1ccccc1)c1ccccc1 | UV-vis spectroscopy | DMSO:PBS 1:99 | – | – | stability time | 1 days |
| O=C(N=P12CN3CN(CN(C3)C1)C2)c1ccccn1.[Cl][Pt][Cl] | NMR | DMSO | room temperature | – | stability time | > 7 days |
| O=C(N=P12CN3CN(CN(C3)C1)C2)c1cccc[c]1[Pd]([Br])([PH]12CN3CN(CN(C3)C1)C2)[PH]12CN3CN(CN(C3)C1)C2 | – | DMSO-d6 | – | – | stability duration | > 2 days |
| O=C(Oc1nsnc1N1CCOCC1)N1CCOCC1 | – | DMSO | 5 days | – | stability | stable |
| [CH3][Ti+2][O]C(=O)c1ccc([S][Au][PH](c2ccccc2)(c2ccccc2)c2ccccc2)cc1.c1cc[cH-]c1.c1cc[cH-]c1 | – | solid in air and CDCl3 | room temperature | – | stability time | ≥ 5 days |
| C[C@@H](O)[C@H](NC(=O)[C@H](CCC(=O)O)NC(=O)[C@H](Cc1ccccc1)NC(=O)[C@H](Cc1c[nH]c2ccccc12)NC(=O)[C@H](CCCCN)NC(=O)[C@H](CCCCN)NC(=O)[C@H](CCCCN)NC(=S)Nc1ccc2c(c1)C(=O)OC21c2ccc(O)cc2Oc2cc(O)ccc21)C(=O)N[C@@H](Cc1c[nH]c2ccccc12)C(=O)N[C@@H](Cc1ccccc1)C(=O)N[C@H](C(=O)N[C@@H](CCC(=O)O)C(=O)N[C@@H](Cc1c[nH]c2ccccc12)C(=O)N1CCC[C@H]1C(=O)N[C@@H](CCCCN)C(=O)N[C@@H](CCCCN)C(=O)N[C@@H](CCCCN)C(=O)N[C@@H](CCCCN)C(=O)O)[C@@H](C)O | SDS-PAGE | human corneal epithelial lysate | concentration not given, 2 h | – | stability | stable |
| O=S([O-])c1ccccc1N=Cc1ccccc1[O-].[Cu+2].c1c[nH]cn1 | UV-visible spectroscopy | water | 0 to 24 h | – | stability | stable |

Excerpt of the above:
| SMILES | assay | system | conditions | scale | quantity | result |
| --- | --- | --- | --- | --- | --- | --- |
| CC[C@H](C)[C@H](NC(=O)[C@H](Cc1c[nH]c2ccccc12)NC(=O)[C@H](CCCNC(=O)c1ccc2c(c1)C1(OC2=O)c2ccc(O)cc2Oc2cc(O)ccc21)NC(=O)CNC(=O)[C@H]1CCCN1C(=O)[C@@H](NC(=O)[C@H](CCCNC(=N)N)NC(=O)[C@@H](NC(=O)[C@H](Cc1c[nH]c2ccccc12)NC(=O)[C@H](CCCN)NC(C)=O)C(C)C)C(C)C)C(=O)N[C@@H](CCCNC(=N)N)C(=O)N[C@@H](CCC(N)=O)C(N)=O | – | OPM-2 cell lysate | – | relative to: compound over unstructured degron peptide | stability ratio | 20 fold |
